Published values from different studies.
Compare with care: the assays were run in different laboratories.
Organism: Pseudomonas aeruginosa

SMILES = CC(C)C[C@@H]1NC(=O)CSC[C@@H]2NC(=O)[C@H](CC(C)C)NC(=O)[C@H](CCCCN)NC(=O)[C@H](CCCCN)NC(=O)[C@H](CCCCNC(=O)[C@H](CCCCN)NC(=O)[C@H](CC(C)C)NC1=O)NC(=O)[C@H](CCCCN)NC(=O)[C@H](CC(C)C)NC(=O)[C@H](CC(C)C)NC(=O)CSC[C@@H](C(=O)N[C@@H](CCCCN)C(N)=O)NC(=O)[C@H](CC(C)C)NC(=O)[C@H](CC(C)C)NC(=O)[C@H](CC(C)C)NC2=O; system = PAO1; conditions = 18 h; MIC = 128 µg/mL
SMILES = CC(C)[C@H](NC(=O)[C@H](CCCCN)NC(=O)[C@H](CCCNC(=N)N)NC(=O)CNC(=O)[C@H](C)NC(=O)[C@H](CC(N)=O)NC(=O)[C@H](CCCNC(=N)N)NC(=O)[C@@H](NC(=O)[C@H](CCCCN)NC(=O)[C@H](CC(=O)O)NC(=O)[C@@H](NC(=O)[C@@H](NC(=O)[C@H](CCCNC(=N)N)NC(=O)[C@H](CCCNC(=N)N)NC(=O)[C@H](Cc1c[nH]c2ccccc12)NC(=O)[C@H](Cc1c[nH]c2ccccc12)NC(=O)CN)[C@@H](C)O)C(C)C)C(C)C)C(=O)O; system = ATCC 27853; conditions = 18 h, 37 °C; MIC = > 256 µg/mL
SMILES = C[C@@](O)(C(F)F)[C@H](NC(=O)c1ccc(C#CC#CC2CC2)cc1)C(=O)NO; test = broth microdilution; system = PAO1, CAMHB with 50% mouse plasma; MIC = 0.5 µg/mL
SMILES = CCCCCCCC(O)CC(=O)N[C@H](CCN)C(=O)N[C@H]1CCNC(=O)[C@H](CC(C)C)NC(=O)[C@H](CCN)NC(=O)[C@H](CCN)NC(=O)[C@H](CC(C)C)NC(=O)[C@@H](CC(C)C)NC(=O)[C@H](CCN)NC1=O (stereo partly drawn); test = broth microdilution; system = FADDI-PA070, polymyxin resistant, CAMHB; conditions = 18 h, 37 °C; MIC = 2 µg/mL
SMILES = CCCCCCCC[C@@H]1NC(=O)[C@@H](Cc2ccccc2)NC(=O)[C@H](CCN)NC(=O)[C@@H](NC(=O)[C@H](CCN)NC(=O)[C@@H](NC(=O)[C@H](CCN)NC(=O)c2ccc(-c3ccccc3)cc2)[C@@H](C)O)CCNC(=O)[C@H]([C@@H](C)O)NC(=O)[C@H](CCN)NC(=O)[C@H](CCN)NC1=O; test = broth microdilution; system = polymyxin-resistant clinical isolate; MIC = 4 µg/mL
SMILES = CC[C@@H](C)[C@@H](NC(=O)[C@@H](C)NC(=O)[C@H](NC(=O)[C@@H](CC(=O)O)NC(=O)[C@@H](CCCCN)NC(=O)[C@@H](CO)NC(=O)[C@H](NC(=O)[C@@H](CC(N)=O)NC(=O)[C@@H](C)NC(=O)[C@H](NC(=O)[C@@H](CCC(=O)O)NC(=O)[C@@H](CCCCN)NC(=O)[C@H](NC(=O)[C@H](NC(=O)[C@@H](Cc1c[nH]cn1)NC(=O)[C@@H](CCCCN)NC(=O)[C@H](NC(=O)[C@@H](CCCCN)NC(=O)[C@@H](CCCCN)NC(=O)[C@H](NC(=O)[C@@H](CC(C)C)NC(=O)[C@@H](CCCCN)NC(=O)[C@@H](CC(N)=O)NC(=O)[C@@H](Cc1ccccc1)NC(=O)[C@@H](CCCNC(=N)N)NC(=O)[C@@H](CCCCN)NC(=O)[C@@H](CCCNC(=N)N)NC(=O)[C@@H](Cc1ccccc1)NC(=O)CN)C(C)C)C(C)C)[C@H](C)O)[C@H](C)CC)[C@H](C)O)C(C)C)C(C)C)C(=O)N[C@@H](C(=O)N[C@H](C)C(=O)NCC(=O)N[C@H](CO)C(=O)NCC(=O)N[C@@H](C(=O)N[C@H](C)C(=O)N[C@@H](C(=O)NCC(=O)N[C@H](C)C(=O)N[C@H](C)C(=O)N[C@H](CCSC)C(N)=O)C(C)C)C(C)C)C(C)C; system = isolate RKI 93/12, CAMHB; MIC = 32 µg/mL
SMILES = CC(C)C[C@H](NC(=O)[C@@H]1CSCC(=O)NCCCC[C@@H]2NC(=O)CSC[C@H](NC(=O)[C@H](CCCCN)NC2=O)C(=O)N[C@@H](CCCCN)C(=O)N[C@@H](CC(C)C)C(=O)N1)C(N)=O; system = PAO1; conditions = 18 h; MIC = > 256 µg/mL
SMILES = CC(C)C[C@H](NC(=O)[C@H](CC(C)C)NC(=O)[C@H](CCCCN)NC(=O)[C@@H]1CCCN1C(=O)[C@H](CC(C)C)NC(=O)[C@H](CC(C)C)NC(=O)[C@H](CCCCN)NC(=O)[C@H](CC(C)C)NC(=O)[C@H](CC(C)C)NC(=O)[C@H](CO)NC(=O)CNC(=O)[C@H](CC(C)C)NC(=O)[C@@H](N)CC(C)C)C(N)=O; test = broth microdilution; MIC = > 100 µM
SMILES = CCCCCCCCCCCCCc1cc(O)cc(O)c1; test = broth microdilution; system = PAO1 chloramphenicol-resistant; conditions = 37 °C; MIC = > 64 µg/mL
SMILES = CCCCCCCCCCCC(=O)NCCCC[C@@H]1NC(=O)[C@H](CCCNC(=N)N)NC(=O)[C@H](CCCNC(=N)N)NC(=O)[C@H](CCCNC(=N)N)NC(=O)[C@H](CCCNC(=N)N)NC(=O)[C@H](CCCNC(=N)N)NC(=O)[C@H](CCCNC(=N)N)NC1=O; test = broth microdilution; system = PAO1; conditions = 37 °C; MIC = 156 µg/mL
SMILES = CC(C)C[C@@H]1NC(=O)[C@@H](CC(C)C)NC(=O)[C@H](CCN)NC(=O)[C@@H](NC(=O)[C@H](CCN)NC(=O)[C@@H](N)[C@@H](C)O)CCNC(=O)[C@H]([C@@H](C)O)NC(=O)[C@H](CCN)NC(=O)[C@H](CCN)NC1=O; test = broth microdilution; system = NDM1, NRZ 08418, CAMHB with polysorbate-80; conditions = 16 h, 37 °C, together with: 0.002% polysorbate-80; MIC = > 64 µg/mL
SMILES = CC(C)C[C@H](NC(=O)[C@H](C)NC(=O)CNC(=O)[C@@H](NC(=O)[C@@H](NC(=O)[C@H](CCCCN)NC(=O)[C@H](CCCCN)NC(=O)[C@H](CC(C)C)NC(=O)[C@H](CC(C)C)NC(=O)[C@H](CCCCN)NC(=O)[C@H](CC(C)C)NC(=O)[C@H](CC(C)C)NC(=O)[C@@H](N)CCCCN)C(C)C)C(C)C)C(=O)NCC(N)=O; system = ATCC 19606, CAMHB; conditions = 18 h, 37 °C; MIC = > 22 µM

A few entries again:
SMILES = CCCCCCCC(O)CC(=O)N[C@H](CCN)C(=O)N[C@H]1CCNC(=O)[C@H](CC(C)C)NC(=O)[C@H](CCN)NC(=O)[C@H](CCN)NC(=O)[C@H](CC(C)C)NC(=O)[C@@H](CC(C)C)NC(=O)[C@H](CCN)NC1=O (stereo partly drawn); test = broth microdilution; system = FADDI-PA070, polymyxin resistant, CAMHB; conditions = 18 h, 37 °C; MIC = 2 µg/mL
